{"data": "Published values of several laboratories", "note": "A part holds a random share of what one study measured. Positions count from the first letter of the parent shown.", "chain of UniProt Q15303 (whole entry, looked up)": "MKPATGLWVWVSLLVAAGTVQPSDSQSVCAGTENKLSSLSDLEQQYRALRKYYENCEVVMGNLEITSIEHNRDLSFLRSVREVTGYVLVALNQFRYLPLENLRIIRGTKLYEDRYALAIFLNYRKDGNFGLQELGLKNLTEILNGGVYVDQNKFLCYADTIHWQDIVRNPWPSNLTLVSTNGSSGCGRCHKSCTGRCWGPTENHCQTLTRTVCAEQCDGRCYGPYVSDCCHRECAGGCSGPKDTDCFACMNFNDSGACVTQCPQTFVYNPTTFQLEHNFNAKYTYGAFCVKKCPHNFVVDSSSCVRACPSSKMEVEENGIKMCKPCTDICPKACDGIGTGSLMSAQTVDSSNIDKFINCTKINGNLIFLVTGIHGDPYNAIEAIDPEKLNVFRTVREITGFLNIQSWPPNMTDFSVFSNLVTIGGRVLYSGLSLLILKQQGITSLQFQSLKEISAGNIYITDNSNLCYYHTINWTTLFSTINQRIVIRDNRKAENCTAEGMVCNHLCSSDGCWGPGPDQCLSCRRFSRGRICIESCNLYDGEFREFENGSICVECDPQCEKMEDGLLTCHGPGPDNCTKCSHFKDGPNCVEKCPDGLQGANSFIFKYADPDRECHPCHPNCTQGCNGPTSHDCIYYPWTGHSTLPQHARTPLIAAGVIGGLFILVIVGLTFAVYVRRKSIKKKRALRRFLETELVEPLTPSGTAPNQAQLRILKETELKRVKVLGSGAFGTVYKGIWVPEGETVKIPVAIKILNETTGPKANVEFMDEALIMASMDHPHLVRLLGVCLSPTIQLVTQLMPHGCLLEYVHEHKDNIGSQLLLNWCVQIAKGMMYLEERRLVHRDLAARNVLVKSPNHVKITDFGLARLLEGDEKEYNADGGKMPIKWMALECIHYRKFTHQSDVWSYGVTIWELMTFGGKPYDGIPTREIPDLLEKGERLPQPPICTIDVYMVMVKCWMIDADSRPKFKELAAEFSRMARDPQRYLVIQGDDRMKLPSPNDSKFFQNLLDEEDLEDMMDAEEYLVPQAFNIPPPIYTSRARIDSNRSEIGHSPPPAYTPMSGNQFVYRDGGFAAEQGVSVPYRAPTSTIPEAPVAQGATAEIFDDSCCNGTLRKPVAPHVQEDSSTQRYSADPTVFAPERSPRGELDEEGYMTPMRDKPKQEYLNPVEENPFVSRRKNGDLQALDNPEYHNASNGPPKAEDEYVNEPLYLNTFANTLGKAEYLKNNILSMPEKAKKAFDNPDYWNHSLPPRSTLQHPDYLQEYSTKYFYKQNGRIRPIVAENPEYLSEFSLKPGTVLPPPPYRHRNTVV"}
{"data": "Series 1", "target": "POU domain, class 5, transcription factor 1, POU domain (Pou5f1, Mus musculus, UniProt P20263, residues 131-289)", "technique": "Spec-seq", "molecule type": "double-stranded DNA, one strand shown", "medium": "in vitro", "tested at": "not given", "setting": "whole probe, mean of replicates", "relative to": "not given", "reading": "lower = stronger binding", "constant ends, left off below": "GAGTCGTCTCGTCAGCAC … CCGTAGAGCACTCAGGTC", "chain of UniProt P20263 (131-289, looked up)": "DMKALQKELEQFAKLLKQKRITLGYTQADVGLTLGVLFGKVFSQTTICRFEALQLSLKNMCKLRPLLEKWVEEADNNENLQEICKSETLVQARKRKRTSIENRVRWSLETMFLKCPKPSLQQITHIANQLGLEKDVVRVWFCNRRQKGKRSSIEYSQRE"}
{"Sequence": "ATGACCAT", "relative binding energy": "0.461 ln ratio"}
{"Sequence": "GCTATAAT", "relative binding energy": "0.691 ln ratio"}
{"Sequence": "ATAGTTAT", "relative binding energy": "0.103 ln ratio"}
{"Sequence": "ATGCAGCA", "relative binding energy": "0.136 ln ratio"}
{"Sequence": "ATGCAGGT", "relative binding energy": "0.313 ln ratio"}
{"Sequence": "ATGCAGAG", "relative binding energy": "-0.205 ln ratio"}
{"Sequence": "ATGAGGAT", "relative binding energy": "0.682 ln ratio"}
{"Sequence": "ATGTACAT", "relative binding energy": "-0.19 ln ratio"}
{"data": "Series 2", "Substitution": "I172R", "target": "ABI1, truncated, D143A, DHFR fusion (Arabidopsis thaliana)", "technique": "DHFR PCA, deep sequencing", "medium": "yeast", "setting": "methotrexate growth selection, single substitutions", "relative to": "wild-type fitted maximum", "reading": "higher = stronger binding", "parent": "PYL1, truncated, DHFR fusion (Arabidopsis thaliana); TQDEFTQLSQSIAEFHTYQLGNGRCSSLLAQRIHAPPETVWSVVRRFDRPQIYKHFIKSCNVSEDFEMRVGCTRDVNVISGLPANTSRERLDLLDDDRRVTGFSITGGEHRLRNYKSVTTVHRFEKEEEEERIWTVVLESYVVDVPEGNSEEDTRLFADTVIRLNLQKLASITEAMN; partner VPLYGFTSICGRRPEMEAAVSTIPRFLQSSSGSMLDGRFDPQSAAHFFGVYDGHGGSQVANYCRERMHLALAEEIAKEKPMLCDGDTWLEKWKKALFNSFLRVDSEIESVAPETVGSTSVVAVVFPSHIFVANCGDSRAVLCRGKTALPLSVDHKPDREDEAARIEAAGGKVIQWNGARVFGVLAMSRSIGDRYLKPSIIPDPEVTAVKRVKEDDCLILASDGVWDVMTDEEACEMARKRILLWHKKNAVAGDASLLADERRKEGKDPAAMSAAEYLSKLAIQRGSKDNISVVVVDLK"}
{"conditions": "added: (+)-ABA 58 µM", "relative binding score": "48.1%"}
{"conditions": "added: (+)-ABA 2500 µM", "relative binding score": "88.8%"}
{"conditions": "added: (+)-ABA 0.032 µM", "relative binding score": "-1.26%"}
{"conditions": "added: (+)-ABA 4.8 µM", "relative binding score": "2.62%"}
{"conditions": "added: (+)-ABA 200 µM", "relative binding score": "71.8%"}
{"conditions": "added: (+)-ABA 0.11 µM", "relative binding score": "-2.46%"}
{"data": "Series 3", "target": "Prothrombin, mature alpha-thrombin (F2, Homo sapiens, UniProt P00734)", "technique": "aptamer microarray, sandwich", "molecule type": "DNA with 2'F-ANA", "medium": "in vitro", "tested at": "200 nM", "setting": "whole 15-mer aptamer, many near background", "added": "Cy3 exosite-II aptamer, 400 nM", "reading": "higher = stronger binding", "sequence": "GGTTGGTGTGGTTGG"}
{"Modification": "2'F-ANA at 4 6 7 9 12 13 15", "mean fluorescence intensity": "275 a.u."}
{"Modification": "2'F-ANA at 5 7 8 9 11 14 15", "mean fluorescence intensity": "48.9 a.u."}
{"Modification": "2'F-ANA at 5 9 10 15", "mean fluorescence intensity": "46.7 a.u."}
{"Modification": "2'F-ANA at 1 2 5 10 11 12 13", "mean fluorescence intensity": "88.3 a.u."}
{"Modification": "2'F-ANA at 2 4 5 11 12 13 14 15", "mean fluorescence intensity": "48.4 a.u."}
{"Modification": "2'F-ANA at 1 3 4 9 12 14", "mean fluorescence intensity": "78.6 a.u."}
{"Modification": "2'F-ANA at 1 3 5 6 8 11 12 13 14", "mean fluorescence intensity": "47.5 a.u."}
{"Modification": "2'F-ANA at 1 2 3 4 5 8 11 14", "mean fluorescence intensity": "49.1 a.u."}
{"data": "Other studies, line by line"}
{"SMILES": "Cc1nc(Nc2ncc(C(=O)Nc3c(C)cccc3Cl)s2)cc(N2CCN(CCO)CC2)n1", "target": "Receptor tyrosine-protein kinase erbB-4 (ERBB4, Homo sapiens, UniProt Q15303)", "test": "enzyme activity, inhibitor", "conditions": "0.5 µM", "scale": "relative to: control", "quantity": "remaining activity", "value": "4.03%"}
{"note": "A few entries again (other studies, line by line):"}
{"SMILES": "Cc1nc(Nc2ncc(C(=O)Nc3c(C)cccc3Cl)s2)cc(N2CCN(CCO)CC2)n1", "target": "Receptor tyrosine-protein kinase erbB-4 (ERBB4, Homo sapiens, UniProt Q15303)", "test": "enzyme activity, inhibitor", "conditions": "0.5 µM", "scale": "relative to: control", "quantity": "remaining activity", "value": "4.03%"}
